Experimental data from different studies.
Protocols differ between the studies behind these lines. ± marks the error that the study gave.
Signal transducer and activator of transcription 2 SH2 domain: Signal transducer and activator of transcription 2, SH2 domain (Homo sapiens, UniProt P52630)
UniProt P52630, sequence (whole entry, looked up): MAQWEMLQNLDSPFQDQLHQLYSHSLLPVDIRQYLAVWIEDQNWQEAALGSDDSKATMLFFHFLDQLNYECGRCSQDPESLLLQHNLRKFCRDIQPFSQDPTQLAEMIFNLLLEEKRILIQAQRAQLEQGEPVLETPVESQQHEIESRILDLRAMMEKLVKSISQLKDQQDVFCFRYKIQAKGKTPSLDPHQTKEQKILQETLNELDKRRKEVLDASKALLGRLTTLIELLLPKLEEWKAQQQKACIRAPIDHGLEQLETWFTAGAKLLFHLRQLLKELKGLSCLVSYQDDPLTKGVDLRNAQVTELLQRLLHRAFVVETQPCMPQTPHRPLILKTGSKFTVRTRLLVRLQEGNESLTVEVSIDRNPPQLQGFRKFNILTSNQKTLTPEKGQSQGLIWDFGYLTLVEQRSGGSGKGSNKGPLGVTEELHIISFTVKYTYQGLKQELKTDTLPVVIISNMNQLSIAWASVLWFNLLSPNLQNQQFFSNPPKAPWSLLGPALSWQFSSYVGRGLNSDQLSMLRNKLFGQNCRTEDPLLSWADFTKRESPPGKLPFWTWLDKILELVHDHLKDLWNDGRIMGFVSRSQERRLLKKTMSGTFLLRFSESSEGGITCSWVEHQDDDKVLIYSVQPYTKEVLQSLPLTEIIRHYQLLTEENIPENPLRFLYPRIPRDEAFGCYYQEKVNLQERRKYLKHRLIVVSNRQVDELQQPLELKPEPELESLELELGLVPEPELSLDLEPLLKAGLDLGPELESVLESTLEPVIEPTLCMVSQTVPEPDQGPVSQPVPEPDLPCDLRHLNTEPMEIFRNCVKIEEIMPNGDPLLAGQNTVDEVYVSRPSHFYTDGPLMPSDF
FGR SH2 domain: Tyrosine-protein kinase Fgr, SH2 domain (FGR, Homo sapiens, UniProt P09769)
UniProt P00512, sequence (whole entry, unmodified, looked up): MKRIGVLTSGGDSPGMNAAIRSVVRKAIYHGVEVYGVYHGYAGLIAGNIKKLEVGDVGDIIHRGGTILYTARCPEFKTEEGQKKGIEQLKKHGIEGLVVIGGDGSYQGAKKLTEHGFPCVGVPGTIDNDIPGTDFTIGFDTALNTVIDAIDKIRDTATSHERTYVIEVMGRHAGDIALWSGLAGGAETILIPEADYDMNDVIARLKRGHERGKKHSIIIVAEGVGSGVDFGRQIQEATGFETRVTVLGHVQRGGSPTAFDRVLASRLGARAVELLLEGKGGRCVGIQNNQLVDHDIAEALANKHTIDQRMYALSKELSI
UniProt P09769, sequence (whole entry, looked up): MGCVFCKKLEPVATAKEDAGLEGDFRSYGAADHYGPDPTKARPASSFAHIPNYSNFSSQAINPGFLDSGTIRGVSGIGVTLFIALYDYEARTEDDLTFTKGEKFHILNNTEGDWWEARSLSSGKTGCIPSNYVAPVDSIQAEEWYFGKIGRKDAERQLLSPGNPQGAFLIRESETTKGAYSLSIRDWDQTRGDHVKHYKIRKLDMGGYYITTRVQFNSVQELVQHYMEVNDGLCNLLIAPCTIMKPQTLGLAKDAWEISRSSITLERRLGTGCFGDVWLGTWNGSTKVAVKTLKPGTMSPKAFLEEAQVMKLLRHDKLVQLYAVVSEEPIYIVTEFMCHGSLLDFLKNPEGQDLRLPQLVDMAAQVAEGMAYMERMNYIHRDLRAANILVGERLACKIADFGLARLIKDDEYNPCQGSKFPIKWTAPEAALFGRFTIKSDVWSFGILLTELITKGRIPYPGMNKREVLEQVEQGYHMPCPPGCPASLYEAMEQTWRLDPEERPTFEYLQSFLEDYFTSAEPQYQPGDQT
UniProt Q9UBE8, sequence (whole entry, looked up): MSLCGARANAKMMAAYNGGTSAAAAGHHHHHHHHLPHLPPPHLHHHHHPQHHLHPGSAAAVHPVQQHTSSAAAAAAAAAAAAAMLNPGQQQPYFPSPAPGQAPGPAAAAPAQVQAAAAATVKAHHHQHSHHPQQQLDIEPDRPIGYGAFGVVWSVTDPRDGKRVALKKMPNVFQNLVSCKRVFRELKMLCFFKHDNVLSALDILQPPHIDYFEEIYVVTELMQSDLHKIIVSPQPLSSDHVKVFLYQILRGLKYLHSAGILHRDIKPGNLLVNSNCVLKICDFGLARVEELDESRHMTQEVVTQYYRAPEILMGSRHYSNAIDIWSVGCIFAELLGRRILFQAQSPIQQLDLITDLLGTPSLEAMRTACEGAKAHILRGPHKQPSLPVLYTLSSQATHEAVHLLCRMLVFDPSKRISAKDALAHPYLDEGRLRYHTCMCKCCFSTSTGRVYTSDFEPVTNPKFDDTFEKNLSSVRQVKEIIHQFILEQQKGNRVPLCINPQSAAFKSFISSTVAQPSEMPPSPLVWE
UniProt P08510, sequence (whole entry, unmodified, looked up): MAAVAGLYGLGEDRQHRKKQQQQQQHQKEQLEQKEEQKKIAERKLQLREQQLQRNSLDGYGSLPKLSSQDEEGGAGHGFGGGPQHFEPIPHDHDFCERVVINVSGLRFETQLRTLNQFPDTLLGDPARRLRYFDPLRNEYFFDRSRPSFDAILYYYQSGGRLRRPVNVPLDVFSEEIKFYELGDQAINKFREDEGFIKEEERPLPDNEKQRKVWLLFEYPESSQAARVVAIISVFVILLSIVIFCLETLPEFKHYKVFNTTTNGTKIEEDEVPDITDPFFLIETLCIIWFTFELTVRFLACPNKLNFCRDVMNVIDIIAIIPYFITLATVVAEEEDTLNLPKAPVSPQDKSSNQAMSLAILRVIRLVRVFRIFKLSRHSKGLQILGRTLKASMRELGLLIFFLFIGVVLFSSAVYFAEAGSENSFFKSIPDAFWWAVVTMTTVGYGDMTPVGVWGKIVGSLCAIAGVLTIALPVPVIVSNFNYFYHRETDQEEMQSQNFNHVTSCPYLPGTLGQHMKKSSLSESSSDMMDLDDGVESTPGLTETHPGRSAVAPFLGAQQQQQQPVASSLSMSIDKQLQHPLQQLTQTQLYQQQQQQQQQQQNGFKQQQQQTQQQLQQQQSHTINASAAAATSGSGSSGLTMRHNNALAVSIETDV
UniProt Q14145, sequence (whole entry, looked up): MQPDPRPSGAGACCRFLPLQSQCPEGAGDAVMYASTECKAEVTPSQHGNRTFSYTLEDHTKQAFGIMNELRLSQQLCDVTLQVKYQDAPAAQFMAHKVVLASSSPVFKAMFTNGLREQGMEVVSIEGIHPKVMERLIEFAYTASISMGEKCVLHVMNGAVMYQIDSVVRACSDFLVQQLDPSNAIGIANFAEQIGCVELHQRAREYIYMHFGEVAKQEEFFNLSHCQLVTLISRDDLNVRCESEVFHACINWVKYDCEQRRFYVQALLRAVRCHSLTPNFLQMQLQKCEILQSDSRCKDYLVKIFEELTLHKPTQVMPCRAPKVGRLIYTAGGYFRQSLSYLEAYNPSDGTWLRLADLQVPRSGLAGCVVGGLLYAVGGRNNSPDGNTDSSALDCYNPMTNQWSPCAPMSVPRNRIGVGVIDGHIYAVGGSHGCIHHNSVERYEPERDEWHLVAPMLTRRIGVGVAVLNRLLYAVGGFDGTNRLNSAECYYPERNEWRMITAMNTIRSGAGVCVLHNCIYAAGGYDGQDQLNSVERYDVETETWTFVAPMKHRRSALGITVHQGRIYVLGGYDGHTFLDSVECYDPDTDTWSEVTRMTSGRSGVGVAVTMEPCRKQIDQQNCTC
UniProt P15104, sequence (whole entry, unmodified, looked up): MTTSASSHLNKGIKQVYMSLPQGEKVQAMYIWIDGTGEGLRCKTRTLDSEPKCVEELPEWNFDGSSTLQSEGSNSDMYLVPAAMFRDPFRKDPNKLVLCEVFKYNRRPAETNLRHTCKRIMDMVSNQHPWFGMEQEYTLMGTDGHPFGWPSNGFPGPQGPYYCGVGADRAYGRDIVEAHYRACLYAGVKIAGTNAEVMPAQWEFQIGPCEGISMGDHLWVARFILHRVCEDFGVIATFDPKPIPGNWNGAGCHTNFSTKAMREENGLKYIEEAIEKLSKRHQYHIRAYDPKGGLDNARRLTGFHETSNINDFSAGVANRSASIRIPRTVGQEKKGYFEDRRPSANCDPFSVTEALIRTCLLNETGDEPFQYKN
UniProt O60674, sequence (whole entry, looked up): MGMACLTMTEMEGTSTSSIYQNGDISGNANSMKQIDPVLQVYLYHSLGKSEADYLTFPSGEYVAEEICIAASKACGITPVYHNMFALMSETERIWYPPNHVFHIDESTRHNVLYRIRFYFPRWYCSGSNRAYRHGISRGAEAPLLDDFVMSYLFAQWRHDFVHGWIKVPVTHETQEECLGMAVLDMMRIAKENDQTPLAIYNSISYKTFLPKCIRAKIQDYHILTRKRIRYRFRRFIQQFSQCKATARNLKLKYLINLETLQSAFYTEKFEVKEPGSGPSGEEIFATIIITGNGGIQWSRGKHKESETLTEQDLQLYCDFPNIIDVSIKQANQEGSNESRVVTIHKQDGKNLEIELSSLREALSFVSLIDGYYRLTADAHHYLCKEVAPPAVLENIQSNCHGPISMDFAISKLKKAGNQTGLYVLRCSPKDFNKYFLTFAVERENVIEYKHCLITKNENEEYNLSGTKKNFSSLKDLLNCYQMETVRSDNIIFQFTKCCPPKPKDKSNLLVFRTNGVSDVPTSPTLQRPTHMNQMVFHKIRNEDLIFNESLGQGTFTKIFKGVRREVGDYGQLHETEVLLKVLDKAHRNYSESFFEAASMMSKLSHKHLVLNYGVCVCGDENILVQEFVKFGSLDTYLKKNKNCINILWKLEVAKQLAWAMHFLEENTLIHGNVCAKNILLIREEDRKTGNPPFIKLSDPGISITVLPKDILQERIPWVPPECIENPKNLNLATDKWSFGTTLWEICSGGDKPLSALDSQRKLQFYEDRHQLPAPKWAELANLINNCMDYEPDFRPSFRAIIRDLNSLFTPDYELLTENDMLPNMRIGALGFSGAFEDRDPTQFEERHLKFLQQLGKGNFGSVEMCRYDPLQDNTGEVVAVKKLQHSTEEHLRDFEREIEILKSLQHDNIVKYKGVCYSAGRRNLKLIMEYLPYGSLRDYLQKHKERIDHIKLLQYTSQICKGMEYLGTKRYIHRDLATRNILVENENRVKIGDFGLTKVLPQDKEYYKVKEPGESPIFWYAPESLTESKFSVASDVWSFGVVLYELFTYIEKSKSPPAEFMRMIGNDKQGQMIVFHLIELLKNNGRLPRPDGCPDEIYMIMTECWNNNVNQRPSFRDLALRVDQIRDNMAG

SMILES	target	assay	system	setting	how to read	measurement	result
Nc1ncnc2c1ncn2[C@@H]1O[C@H](COP(=O)(O)OP(=O)(O)O)[C@@H](O)[C@H]1O	Cell cycle histidine kinase CckA, cytoplasmic region (Caulobacter vibrioides, UniProt Q9X688)	binding, kinetic model fit		second binding constant, together with: saturating c-di-GMP		Kd	0.3 µM
CO[C@@H]1[C@@H](OC(N)=O)[C@@H](O)[C@H](Oc2ccc3c(O)c(NC(=O)c4ccc(O)c(CC=C(C)C)c4)c(=O)oc3c2C)OC1(C)C	TetR-family regulator NalD (Pseudomonas aeruginosa, UniProt Q9HY46, F132A/N129A/V133A)					Kd	227 µM
COc1cc(Nc2ncc(F)c(Nc3ccc4c(n3)NC(=O)C(C)(C)O4)n2)cc(OC)c1OC	ADAM17 (Homo sapiens, UniProt P78536)	inhibitor				IC50	> 10 µM
CSCC[C@H](N)C(=O)N[C@@H](C)C(=O)N[C@@H](C)C(=O)N[C@H](C(=O)N[C@@H](C)C(=O)NCC(=O)N[C@@H](CC(C)C)C(=O)N[C@@H](Cc1ccc(O)cc1)C(=O)NCC(=O)N[C@@H](CC(C)C)C(=O)NCC(=O)N[C@@H](CCC(=O)O)C(=O)N[C@@H](CC(=O)O)C(=O)N[C@@H](CCCNC(=N)N)C(=O)N[C@@H](CCC(N)=O)C(=O)N[C@@H](Cc1c[nH]cn1)C(=O)N[C@@H](CCCNC(=N)N)C(=O)N[C@@H](CCCCN)C(=O)N[C@@H](CCCCN)C(=O)N[C@@H](CCC(N)=O)C(N)=O)C(C)C	Sh, DEL6-46 (Drosophila melanogaster, UniProt P08510)	ion current, blocker, inside-out patch clamp		+70 mV		Kd	3.7 µM
O=C(CO)[C@@H](O)[C@H](O)[C@H](O)COP(=O)(O)O	pfkA (Geobacillus stearothermophilus, UniProt P00512, H160A)					Kd	56 ± 2 µM
Nc1ncnc2c1ncn2[C@@H]1O[C@H](CN(CC[C@H](N)C(=O)O)Cc2cn(CCNC(=O)c3ccc4c(c3)C(=O)OC43c4ccc(O)cc4Oc4cc(O)ccc43)nn2)[C@@H](O)[C@H]1O	Genome polyprotein, NS5 MTase domain (ZIKV, UniProt A0A024B7W1)	binding	Zika virus			Kd	3.5 µM
C[N+](C)(C)[C@@H](Cc1c[nH]c(=S)[nH]1)C(=O)[O-]	egtUBC (Streptococcus pneumoniae, UniProt A0A0H2ZQB9, I243P)	binding				Kd	45.5 µM
CN(CC(=O)O)C(=N)NP(=O)(O)O	CKMT1A (Homo sapiens, UniProt P12532, E265D)	microscale thermophoresis		pH 7.0, E227D mutant, no substrate		Kd	225 ± 90 µM
CSCC[C@H](NC(=O)[C@H](CCC(N)=O)NC(=O)[C@H](CC(C)C)NC(=O)[C@H](CO)NC(=O)[C@H](CCC(N)=O)NC(=O)[C@H](CC(C)C)NC(=O)[C@H](CCC(=O)O)NC(=O)CNC(=O)[C@@H](NC(=O)[C@H](CO)NC(=O)[C@@H]1CCCN1C(=O)[C@H](CC(=O)O)NC(=O)[C@@H](NC(=O)[C@H](CCC(=O)O)NC(=O)[C@H](CCCCN)NC(=O)[C@H](CO)NC(=O)[C@H](CO)NC(=O)[C@H](CC(C)C)NC(C)=O)C(C)C)[C@@H](C)O)C(=O)N1CCC[C@H]1C(=O)N[C@@H](CCC(=O)O)C(N)=O	Kelch-like ECH-associated protein 1, Kelch domain (KEAP1, Homo sapiens, UniProt Q14145)	binding to Kelch domain, isothermal titration calorimetry		pH 7, 25 °C		Kd	1.7 ± 0.04 µM
C=C(OP(=O)(O)O)C(=O)O	pfkA (Geobacillus stearothermophilus, UniProt P00512, T156A)					Kd	2.1 ± 0.1 µM
Nc1ncnc2c1ncn2[C@@H]1O[C@H](COP(=O)(O)OP(=O)(O)OP(=O)(O)O)[C@@H](O)[C@H]1O	matB (Rhodopseudomonas palustris, UniProt Q6ND88, C106A/K488A/Q457C/R286C)	binding	HEPES buffer	pH 7.0		Kd	5.8 ± 0.3 µM
CC(C)C[C@@H]1NC(=O)CNC(=O)[C@H](CC(C)C)NC(=O)[C@@H]2CCCN2C(=O)[C@H](CC(=O)O)NC(=O)[C@H](Cc2ccc(O)cc2)NC(=O)CNC(=O)[C@@H](Cc2ccc(O)cc2)NC(=O)CSC[C@@H](C(N)=O)NC(=O)[C@H](C)NC(=O)[C@H](Cc2ccccc2)NC(=O)[C@H](Cc2ccc(O)cc2)NC(=O)[C@H](CCCCN)NC1=O	VPS35/VPS29 (Homo sapiens, UniProt Q96QK1+Q9UBQ0)	binding, ITC		25 °C, heterodimer		Kd	0.029 ± 0.002 µM
CC[C@H](C)[C@H](NC(=O)[C@H](CC(=O)O)NC(=O)[C@H](C)NC(=O)[C@H](Cc1ccc(OP(=O)(O)O)cc1)NC(=O)[C@H](CCCCN)NC(=O)[C@@H](NC(=O)[C@H](CC(=O)O)NC(=O)CNC(=O)[C@H](CCCCN)NC(=O)[C@H](CCSC)NC(=O)[C@H](CC(=O)O)NC(=O)[C@H](CC(C)C)NC(=O)[C@H](CCSC)NC(=O)c1ccc2c(c1)C(=O)OC21c2ccc(N(C)C)cc2Oc2cc(N(C)C)ccc21)C(C)C)C(=O)N[C@@H](CCC(=O)O)C(=O)N[C@@H](CO)C(=O)N[C@@H](CO)C(=O)N[C@@H](CC(N)=O)C(=O)N[C@@H](CC(=O)O)C(=O)O	Signal transducer and activator of transcription 2 SH2 domain	binding				Kd	0.672 µM
CC1=C(N(C)C)C(=O)c2ccccc2C1=O	Reaction center protein L chain, QB site (pufL, Cereibacter sphaeroides, UniProt P0C0Y8)	QB site binding, competitive inhibitor				Kd	> 100 µM
CSCC[C@H](NC(=O)[C@H](CC(=O)O)NC(=O)c1ccc2c(c1)C(=O)OC21c2ccc(N(C)C)cc2Oc2cc(N(C)C)ccc21)C(=O)N[C@@H](CO)C(=O)N[C@@H](CCCCN)C(=O)N[C@@H](CC(=O)O)C(=O)N[C@@H](CCC(=O)O)C(=O)N[C@@H](CO)C(=O)N[C@H](C(=O)N[C@@H](CC(=O)O)C(=O)N[C@@H](Cc1ccc(OP(=O)(O)O)cc1)C(=O)N[C@H](C(=O)N1CCC[C@H]1C(=O)N[C@@H](CCSC)C(=O)N[C@@H](CC(C)C)C(=O)N[C@@H](CC(=O)O)C(=O)N[C@@H](CCSC)C(=O)N[C@@H](CCCCN)C(=O)N[C@@H](CC(=O)O)C(=O)O)C(C)C)C(C)C	Signal transducer and activator of transcription 2 SH2 domain	binding				Kd	0.42 µM
CSCC[C@H](NC(=O)[C@@H]1CCCN1)C(=O)N[C@@H](C)C(=O)N[C@@H](CO)C(=O)N[C@@H](CC(=O)O)C(=O)N1CCC[C@H]1C(=O)N[C@@H](CC(C)C)C(=O)NCC(=O)N[C@H](C(=O)N[C@H](C(=O)N[C@@H](CCCNC(=N)N)C(=O)N1CCC[C@H]1C(=O)N[C@@H](CCCNC(=N)N)C(=O)N[C@@H](C)C(=O)N[C@@H](CCCNC(=N)N)C(=O)N[C@@H](C)C(N)=O)C(C)C)C(C)C	Klotho (Kl, Mus musculus, UniProt O35082)	competitive BLI	mouse	30 °C		Kd	> 5 µM
CC[C@H](C)[C@H](NC(=O)c1ccc2c(c1)C(=O)OC21c2ccc(N(C)C)cc2Oc2cc(N(C)C)ccc21)C(=O)N[C@@H](CCC(=O)O)C(=O)N[C@@H](CO)C(=O)N[C@@H](CO)C(=O)N[C@@H](CC(N)=O)C(=O)N[C@@H](Cc1ccc(O)cc1)C(=O)N[C@@H](CCSC)C(=O)N[C@@H](C)C(=O)N1CCC[C@H]1C(=O)N[C@@H](Cc1ccc(OP(=O)(O)O)cc1)C(=O)N[C@@H](CC(=O)O)C(=O)N[C@@H](CC(N)=O)C(=O)N[C@@H](Cc1ccc(O)cc1)C(=O)N[C@H](C(=O)N1CCC[C@H]1C(=O)N[C@@H](CO)C(=O)N[C@@H](C)C(=O)N[C@@H](CC(=O)O)C(=O)O)C(C)C	Tyrosine-protein kinase ZAP-70, SH2 domains (ZAP70, Homo sapiens, UniProt P43403)	binding				Kd	1.11 µM
C[C@H]1CN(c2n[nH]c3nc(N[C@H]4CC[C@H](NS(=O)(=O)CCC(F)(F)F)CC4)ncc23)CCO1	NLK (Homo sapiens, UniProt Q9UBE8)	Kinobeads competition	HEK293, K562, placenta lysate	0.8 µM, unit not given	reference: vehicle	remaining binding	0.5
CC[C@H](C)[C@H](NC(=O)[C@H](Cc1ccc(OP(=O)(O)O)cc1)NC(=O)[C@H](CCC(=O)O)NC(=O)[C@H](Cc1c[nH]cn1)NC(=O)CNC(=O)[C@H](CC(=O)O)NC(=O)[C@H](CO)NC(=O)[C@H](CO)NC(=O)[C@@H](NC(=O)[C@H](CO)NC(=O)[C@H](CCC(=O)O)NC(=O)c1ccc2c(c1)C(=O)OC21c2ccc(N(C)C)cc2Oc2cc(N(C)C)ccc21)C(C)C)C(=O)N[C@@H](Cc1ccc(O)cc1)C(=O)N[C@H](C(=O)N[C@@H](CC(=O)O)C(=O)N1CCC[C@H]1C(=O)N[C@@H](CCSC)C(=O)N[C@@H](CCC(N)=O)C(=O)N[C@@H](CC(=O)O)C(=O)O)C(C)C	Tyrosine-protein kinase JAK2, SH2 domain (JAK2, Homo sapiens, UniProt O60674)	binding				Kd	1.96 µM
Cn1c2cccc(=O)c-2nc2ccccc21	TetR-family regulator NalD (Pseudomonas aeruginosa, UniProt Q9HY46)	microscale thermophoresis				Kd	31.7 µM
CC[C@H](C)[C@H](NC(=O)[C@H](CC(=O)O)NC(=O)[C@H](C)NC(=O)[C@H](Cc1ccc(O)cc1)NC(=O)[C@H](CCCCN)NC(=O)c1ccc2c(c1)C(=O)OC21c2ccc(N(C)C)cc2Oc2cc(N(C)C)ccc21)C(=O)N[C@@H](CCC(=O)O)C(=O)N[C@@H](CO)C(=O)N[C@@H](CO)C(=O)N[C@@H](CC(N)=O)C(=O)N[C@@H](Cc1ccc(OP(=O)(O)O)cc1)C(=O)N[C@@H](CCSC)C(=O)N[C@@H](C)C(=O)N1CCC[C@H]1C(=O)N[C@@H](Cc1ccc(O)cc1)C(=O)N[C@@H](CC(=O)O)C(=O)N[C@@H](CC(N)=O)C(=O)N[C@@H](Cc1ccc(O)cc1)C(=O)N[C@@H](CC(=O)O)C(=O)O	FGR SH2 domain	binding				Kd	1.25 µM
CC[C@H](C)[C@H](NC(=O)[C@H](CCCNC(=N)N)NC(=O)CNC(=O)[C@H](Cc1c[nH]c2ccccc12)NC(=O)[C@@H]1CSC[C@@H](NC(=O)[C@H](Cc2ccc(O)cc2)NC(=O)[C@H](Cc2c[nH]c3ccccc23)NC(=O)[C@H](CC(C)C)NC(=O)CNC(=O)[C@H](CCCNC(=N)N)NC(=O)c2ccc3c(c2)C(=O)OC32c3ccc(O)cc3Oc3cc(O)ccc32)C(=O)N[C@@H](Cc2ccccc2)C(=O)N[C@@H](CO)C(=O)N1)C(=O)NCC(=O)N[C@@H](CCCNC(=N)N)C(=O)N[C@@H](CCCNC(=N)N)C(=O)NCCCOCCOCCOCCCNC(=O)CCC(=O)NCCCOCCOCCOCCCNC(=O)CCC(=O)NCCCOCCOCCOCCCNC(=O)CCC(=O)N[C@@H](C)C(=O)O	srtA (Staphylococcus aureus, UniProt Q2FV99)	binding, fluorescence polarization		pH 7.5		Kd	9.9 ± 0.81 µM
CC[C@H](C)[C@H](NC(=O)[C@H](C)NC(=O)[C@H](CCC(=O)O)NC(=O)[C@H](CC(=O)O)NC(=O)[C@H](Cc1ccccc1)NC(=O)[C@@H](NC(=O)[C@H](C)N)C(C)C)C(=O)N[C@@H](CC(C)C)C(=O)N[C@H](C(=O)N[C@H](C(=O)N[C@@H](Cc1ccccc1)C(=O)N[C@@H](Cc1c[nH]cn1)C(=O)N1CCC[C@H]1C(=O)N[C@@H](CCCCN)C(=O)O)[C@@H](C)CC)[C@@H](C)O	GLUL (Homo sapiens, UniProt P15104, P208A)	SPR		P227A mutant		Kd	662 µM
CSCC[C@H](NC(=O)CNC(=O)[C@H](Cc1ccccc1)NC(=O)[C@H](CC(=O)O)NC(=O)CNC(=O)c1ccc2c(c1)C(=O)OC21c2ccc(N(C)C)cc2Oc2cc(N(C)C)ccc21)C(=O)N[C@@H](CO)C(=O)N[C@@H](CCCNC(=N)N)C(=O)N[C@@H](CC(=O)O)C(=O)N[C@H](C(=O)N[C@@H](Cc1ccc(OP(=O)(O)O)cc1)C(=O)N[C@@H](CO)C(=O)N[C@H](C(=O)N[C@@H](CC(=O)O)C(=O)N[C@@H](Cc1ccc(O)cc1)C(=O)N[C@@H](Cc1ccc(O)cc1)C(=O)N[C@@H](CCCNC(=N)N)C(=O)N[C@H](C(=O)N[C@@H](CC(=O)O)C(=O)O)C(C)C)[C@@H](C)O)C(C)C	FGR SH2 domain	binding				Kd	1.19 µM
